{"data": "Measurements from different studies", "note": "A part holds a random share of what one study measured."}
{"data": "Sample 1", "target": "Hepatocyte nuclear factor 3-beta, forkhead domain (FOXA2, Homo sapiens, UniProt Q9Y261, residues 142-269)", "method": "protein-binding microarray", "form": "double-stranded DNA, one strand shown", "sample": "in vitro", "concentration": "not given", "notes": "k-mer, scored over probes, only values ≥0.25", "direction": "higher = stronger binding", "Residues (chain)": "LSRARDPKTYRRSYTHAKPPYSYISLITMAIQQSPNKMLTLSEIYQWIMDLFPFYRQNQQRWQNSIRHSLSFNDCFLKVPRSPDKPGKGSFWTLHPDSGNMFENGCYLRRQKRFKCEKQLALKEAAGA"}
{"Strand": "AAGGACAT", "E-score": 0.305}
{"Strand": "AATATATG", "E-score": 0.385}
{"Strand": "TGTACAAA", "E-score": 0.343}
{"Strand": "TATGACAA", "E-score": 0.277}
{"Strand": "AAACACTC", "E-score": 0.276}
{"Strand": "ACAATTTA", "E-score": 0.296}
{"Strand": "ATTACCAC", "E-score": 0.268}
{"Strand": "CATGATAA", "E-score": 0.282}
{"Strand": "ACGTATAC", "E-score": 0.267}
{"Strand": "TACAATCA", "E-score": 0.317}
{"data": "Sample 2", "target": "Sal-like protein 4, full length isoform A (SALL4, Homo sapiens, UniProt Q9UJQ4, residues 1-1053)", "method": "universal PBM", "form": "double-stranded DNA, one strand shown", "sample": "in vitro", "concentration": "600 nM", "notes": "8-mer, flanks averaged, mean of replicates", "direction": "higher = stronger binding", "chain of UniProt Q9UJQ4 (whole entry, looked up)": "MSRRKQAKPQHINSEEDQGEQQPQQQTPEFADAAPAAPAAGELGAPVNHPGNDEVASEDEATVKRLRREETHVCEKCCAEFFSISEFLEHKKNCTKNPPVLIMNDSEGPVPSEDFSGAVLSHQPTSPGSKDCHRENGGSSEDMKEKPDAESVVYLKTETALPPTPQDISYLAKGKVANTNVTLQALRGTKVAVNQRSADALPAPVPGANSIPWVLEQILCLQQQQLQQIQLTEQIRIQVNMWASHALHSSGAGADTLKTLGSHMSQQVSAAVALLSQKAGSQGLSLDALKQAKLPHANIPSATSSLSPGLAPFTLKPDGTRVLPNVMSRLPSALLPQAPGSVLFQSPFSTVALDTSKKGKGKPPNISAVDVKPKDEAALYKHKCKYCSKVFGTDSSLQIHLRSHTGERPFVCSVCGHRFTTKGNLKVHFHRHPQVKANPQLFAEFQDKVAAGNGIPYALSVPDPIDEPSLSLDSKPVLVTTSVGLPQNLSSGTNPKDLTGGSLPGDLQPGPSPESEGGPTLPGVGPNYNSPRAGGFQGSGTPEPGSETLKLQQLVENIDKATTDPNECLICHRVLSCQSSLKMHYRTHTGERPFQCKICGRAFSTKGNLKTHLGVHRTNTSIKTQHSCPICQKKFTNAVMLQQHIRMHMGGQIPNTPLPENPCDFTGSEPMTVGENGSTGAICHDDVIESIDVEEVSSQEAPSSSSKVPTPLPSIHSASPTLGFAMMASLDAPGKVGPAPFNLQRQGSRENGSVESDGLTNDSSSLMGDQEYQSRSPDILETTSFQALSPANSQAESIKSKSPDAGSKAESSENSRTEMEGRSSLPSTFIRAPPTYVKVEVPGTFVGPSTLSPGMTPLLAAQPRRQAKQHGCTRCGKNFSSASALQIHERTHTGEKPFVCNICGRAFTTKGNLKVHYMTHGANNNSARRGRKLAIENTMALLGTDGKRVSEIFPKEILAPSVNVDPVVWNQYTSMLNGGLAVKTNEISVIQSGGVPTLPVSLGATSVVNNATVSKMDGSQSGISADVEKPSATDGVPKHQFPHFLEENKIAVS"}
{"Strand": "GGACAAGA", "E-score": -0.0145}
{"Strand": "CAATTCGA", "E-score": 0.0434}
{"Strand": "CCCAGTAG", "E-score": -0.0937}
{"Strand": "ATACGCTG", "E-score": -0.0372}
{"Strand": "GGGTGGAC", "E-score": -0.404}
{"Strand": "ATTGCCTC", "E-score": 0.0696}
{"Strand": "GATGTTCA", "E-score": -0.0538}
{"Strand": "GCCCGGCC", "E-score": -0.39}
{"Strand": "ATGAAGGA", "E-score": 0.299}
{"Strand": "ATCCTCAA", "E-score": 0.111}
{"Strand": "CGGCGGCC", "E-score": -0.355}
{"Strand": "ATACAGGA", "E-score": 0.13}
{"Strand": "GGATCTTA", "E-score": -0.08}
{"data": "Sample 3", "target": "Prothrombin, mature alpha-thrombin (F2, Homo sapiens, UniProt P00734)", "method": "aptamer microarray, sandwich", "form": "DNA with 2'F-ANA", "sample": "in vitro", "concentration": "200 nM", "notes": "whole 15-mer aptamer, many near background", "together with": "Cy3 exosite-II aptamer, 400 nM", "direction": "higher = stronger binding", "strand": "GGTTGGTGTGGTTGG"}
{"Modification": "2'F-ANA at 1 3 5 9 12 13 15", "mean fluorescence intensity [a.u.]": 83.1}
{"Modification": "2'F-ANA at 2 3 4 8 9 10 11 13 15", "mean fluorescence intensity [a.u.]": 161}
{"Modification": "2'F-ANA at 4 9 11 12 14 15", "mean fluorescence intensity [a.u.]": 90.4}
{"Modification": "2'F-ANA at 1 2 3 4 7 9 10 12 14", "mean fluorescence intensity [a.u.]": 53.6}
{"Modification": "2'F-ANA at 1 2 3 4 6 9 11 12 13 15", "mean fluorescence intensity [a.u.]": 172}
{"Modification": "2'F-ANA at 1 3 5 6 8 11 12 15", "mean fluorescence intensity [a.u.]": 102}
{"Modification": "2'F-ANA at 2 3 4 7 14", "mean fluorescence intensity [a.u.]": 360}
{"Modification": "2'F-ANA at 2 3 4 9 12 15", "mean fluorescence intensity [a.u.]": 913}
{"Modification": "2'F-ANA at 1 5 6 10 11", "mean fluorescence intensity [a.u.]": 124}
{"Modification": "2'F-ANA at 3 4 5 6 7 8 9 10 11 12 14", "mean fluorescence intensity [a.u.]": 51}
{"Modification": "2'F-ANA at 2 3 4 10 11 13", "mean fluorescence intensity [a.u.]": 225}
{"data": "Single results of other studies"}
{"Substance": "PhoQ, residues 284 288 289 292 302 303 SMMNNA", "target": "PhoP, residues 12 14 15 18 19 GHCSL (Escherichia coli, UniProt P23836)", "assay": "Sort-seq, measured: YFP reporter", "system": "E. coli", "conditions": "PhoQ-PhoP variant library, together with: 10 µM Mg2+", "how to read": "baseline: high Mg2+ state, higher = stronger signaling", "quantity": "fold induction", "value": 22.3}
{"note": "For quick reference, copied from above (sample 3):"}
{"Modification": "2'F-ANA at 2 3 4 10 11 13", "mean fluorescence intensity [a.u.]": 225}
{"Modification": "2'F-ANA at 1 3 5 9 12 13 15", "mean fluorescence intensity [a.u.]": 83.1}
{"Modification": "2'F-ANA at 1 5 6 10 11", "mean fluorescence intensity [a.u.]": 124}
